# Measurements collected from several papers.
# Parts stem from different laboratories: compare values within a part only.

# Block 1 — method: RNA Bind-n-Seq; molecule type: RNA; matrix: in vitro; concentration: not given; reference: input RNA pool; direction: higher = stronger binding
# Target: RING finger protein unkempt homolog, zinc fingers 1-6, GST-SBP tag (UNK, Homo sapiens, UniProt Q9C0B0, residues 30-357)
# Setting: RNA with constant flanks, human and mouse sites, ends assumed
# Construct (chain): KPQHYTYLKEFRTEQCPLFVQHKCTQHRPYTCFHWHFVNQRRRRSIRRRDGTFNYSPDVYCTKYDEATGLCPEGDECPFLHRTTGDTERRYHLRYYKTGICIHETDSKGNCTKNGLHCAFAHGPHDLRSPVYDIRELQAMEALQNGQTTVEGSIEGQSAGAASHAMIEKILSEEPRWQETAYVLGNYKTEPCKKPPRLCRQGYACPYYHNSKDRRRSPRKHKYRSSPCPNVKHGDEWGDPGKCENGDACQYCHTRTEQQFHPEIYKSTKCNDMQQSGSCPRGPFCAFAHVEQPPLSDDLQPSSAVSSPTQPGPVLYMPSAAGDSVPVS
Oligonucleotide,bound/input enrichment
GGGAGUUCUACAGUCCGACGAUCAUUCCUGAAGACAAGAAAGUCAGGGUUCAGAGGACGCAGAGCACUUUUGACCCAUUUGAGAAACCAGCCAACCAAGUCAAAAGGGUCCAUUCUGAGAACAAUGCAUGCAUUAACUUUAAACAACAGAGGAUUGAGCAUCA,0.107 ratio
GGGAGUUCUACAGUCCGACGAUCCUCACACCGUGUGUGGUCCAGGCUGUACCUUCAGAUCUUUAUGUGGUUCCAAAAUGUCCUUAGCUGCCCUGUGGCCUGAAGGAAUCCAGAGCCAGGGAGCAAUAUGCUGAUAGCAGGGUGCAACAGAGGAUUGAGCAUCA,0.0902 ratio
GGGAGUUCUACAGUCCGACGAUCGUCUUCUCUUCUUCCUGUUUGUUCUCCCCGUGUUGUCCUCCUGCUGGCCAAGCGGCCUCUUAGUAGUGGUGGGUUUGGUGAAGGUAUCUUCUCUACCCAGCGCUUGACCUGAGUGGUGUGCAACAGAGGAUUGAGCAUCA,0.304 ratio
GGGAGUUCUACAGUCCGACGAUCUUAUGUCUUCAGCUUCGGCAGGACAUAGUUGCAGGACGUCUGCCCUGUUCCUUUGCAACCUUAGCAUUAUUAGGUUCUUACACCAUCCAGUCUGAACUGGGAGACUACGACCCAGAACUCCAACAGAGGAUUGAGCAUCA,0.981 ratio
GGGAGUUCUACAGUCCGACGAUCGUACAAGAAGAGCUUCUGAAGGGCCUGGAUAACAAGAACCCCAAGAUCAUAGUGGCCUGUAUAGAAACACUGAGGAAAGCCUUAAGUGAAUUUGGUUCCAAAAUCAUCUCACUUAAGCCACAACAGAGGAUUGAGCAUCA,0.613 ratio
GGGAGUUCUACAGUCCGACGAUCCGGGCGGCUUUCCAGAGCCUGCUGGACGCCCGGGCGGACGAGGCCGCGCUAGAUCACCCAUACUUGAAACAGAUCGACCCAGUGGUUUUAAAGCAUUGUCAUGCAGCAGCUGCAACUUGCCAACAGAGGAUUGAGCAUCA,0.149 ratio
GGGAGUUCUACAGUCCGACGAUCAAUUCUUUCGCAGCCAUUGAACUUCUAUAGGGAAGGGUUUGUGGACCAGAACUUUGACCUUGUGAAUGCAUGAUGUUAGGGAUGUGGAUAGAAUAAGCAUAUUGCUGCUGUGGGCUGACACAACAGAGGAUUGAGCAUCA,3.29 ratio
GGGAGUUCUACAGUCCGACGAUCGGUCGUGGUGUUUUAAAAGCAUAAGUUACCUGUUUGCACUGUUUUAAGAUAGGAAAAAAAAAUAGUGGGCAAGGUGAACAUCAGACGUAAAUUUGUGUGUUUUUAUUUUGUCAUGCUCUUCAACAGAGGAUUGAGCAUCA,0.431 ratio
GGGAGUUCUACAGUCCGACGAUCGGCGGCAGCCCUGGUUAGCUGAUCACACCCAGGUGUCAUGAUGCCAACAUCCUAGGUUCCUAGUUUUUGGUUUUGGUAACUUAGUGCGUAGCUCCAGGUGCCGCAUCUACUCGCCAAUCUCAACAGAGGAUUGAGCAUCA,0.222 ratio
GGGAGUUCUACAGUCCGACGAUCUCCGAUAACUCCAGGUUUCCACUUGCAGUUGUAGAAGAGCCAAUUACUGUGGAAGUGGCUUUUAGAAACCCUUUAAAAGUUCCGCUUUUGCUGUCUGAUUUGUCAUUACUCUGGAAGUUUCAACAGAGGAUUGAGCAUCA,0.15 ratio
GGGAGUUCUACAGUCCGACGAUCGACGACAAAAGAGUUGUACCUAAAGGAAAAGGAGAACAGAUUGCAAGGGAGCAUGGUAUUAGGUUUUUUGAGACUAGUGCAAAAGCAAAUAUAAACAUCGAAAAGGCGUUCCUCACGUUACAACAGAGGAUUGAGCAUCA,2.04 ratio

# Block 2 — method: RNA Bind-n-Seq; molecule type: RNA; matrix: in vitro; concentration: 365 nM; reference: no-protein control; direction: higher = stronger binding
# Target: RNA binding protein fox-1 homolog 2, RRM domain, GST-SBP tag (RBFOX2, Homo sapiens, UniProt O43251-10, residues 100-194)
# Setting: natural RNA segment, single round, ends assumed
# Target sequence (chain): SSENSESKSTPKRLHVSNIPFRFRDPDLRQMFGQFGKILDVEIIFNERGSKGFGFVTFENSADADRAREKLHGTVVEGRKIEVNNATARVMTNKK
Oligonucleotide,RBNS enrichment (R)
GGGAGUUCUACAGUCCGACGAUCGAUUUUACUUACGCUACCUCUCCAAUGCUGGCUUCAUUUUAAUUGUGUUUUAUAUGCUCAUUUAAAAUGACUUUUCAGUGUUCUUCAGUUUAAAAUCUGUUGUUUGACUUUGGAAUUCUCGGGUGCCAA,0.386
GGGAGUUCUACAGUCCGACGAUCGGUGGCUGUGAUUAAAUGUCCCAAGCAAGGAUAGGGAAGGGGAAUGGUUGAGCCUCUGGAGAUCAUUGUAACCAAUCCUGCCAGACCUGUUUGGGGCAGUGGGGAGCAAAUGGAAUUCUCGGGUGCCAA,2.5
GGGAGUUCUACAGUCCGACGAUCAAUAUAGGAAGCAUAUGCCUACUUGUAAUUUCUAACUCCUUAUGUUUGAAGAGAAACCUCCGGUGUGAGAUAUACAAAUAUAUUUAAUUGUGUCAUAUUAAACUUCUGAUUGGAAUUCUCGGGUGCCAA,0.636
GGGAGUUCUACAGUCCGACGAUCACGCCCUGAGUACGGGUACCAUGCUCUGUUUACUUUAGGAUCUCCAGCACCAAGCAAGUGCCUGGCACAUAGUCUGUGCCCUUAACAUUUGUAGAAAGGAGCUCACCAGCUGGAAUUCUCGGGUGCCAA,0.197
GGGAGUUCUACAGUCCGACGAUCCUGGGGUUACAGGUGUGAUCACCUUGCUGGCUUGUGAGGUGCUGGGGACAACCCAGGGCUUCGUGCAUGUCAGGCACACACUCCCAACUAAGCUACAUCCCCAGUCCCUCUGGAAUUCUCGGGUGCCAA,1.56
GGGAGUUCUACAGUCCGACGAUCUCCUUCAAUUAAUAAAAUAUUUUUGCCAUAGUAUGUGACUCUACAUAACAUACUGAAACUAUUUAUAUUUUCUUUUUUAAGGAUAUUUAGAAAUUUUGUGUAUUAUAUGGUGGAAUUCUCGGGUGCCAA,0.815
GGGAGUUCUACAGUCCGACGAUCAAGACUAUUGAAGACUCCAUUGCCAAACCAUGGCCUUUCCUCAGUGUUGUAAGGCCUAUGCCAAGGAUAAAGGAAGGGUAUGCCUUUGGGUACUCCAGGCACACACCUUUUGGAAUUCUCGGGUGCCAA,0.341
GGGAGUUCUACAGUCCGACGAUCCUAGUCCUGAAUUCCUAACUCUCCUGAGUGCUGAGAUUGUCAAGCACUGCAUUAAACCUGGCUGGUCUCUUGUCUUGACUUCCUAUAUCUUUGGCUCCUUCUGUCUCAGAUGGAAUUCUCGGGUGCCAA,0.727
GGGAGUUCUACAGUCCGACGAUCAACCGUAUAUUAAUCGCCAGUGUUUAAAACUGGUUUAUCAGAAUUUAUAUUUUUGUCUCUCCUGCCUUUUGAAUUUUACUUAUGACAGAGAAAGUAUUGAGCCAUGACUUUGGAAUUCUCGGGUGCCAA,0.512
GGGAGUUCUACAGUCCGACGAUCCCUCUGCAGGGUGAGACUUUUAUUAUUGCCAAUAAGAAUCGAAGGUGAUAAUAAGAUAUAGAAUGCUUUUGUUCAGUUCUCCCCUUACAAAGAAAGUCCCUUGCUUGUCUUGGAAUUCUCGGGUGCCAA,3.71
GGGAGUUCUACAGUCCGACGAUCCCCGUUGCAACUGGUCCCAGACCAGAAUGGCCUCCUCAGAAGGGGAGGUGCUCUUCAAAUCUCCCUUAGGGGCUGCAUACCUCCCCAGGUAAUCAAGCACGGAUCUUCUCUGGAAUUCUCGGGUGCCAA,0.391
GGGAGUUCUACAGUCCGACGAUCAAACUUGGUUGACAAAAUUUUGGAUCAACUGAAAAAAGCAUGACUUUUGAAAUCUCUGAAUGCCUUGGUUCUCAGUAUUAUCAUUCUUUAUUGAAUUUAUUUCUUAUUAAUGGAAUUCUCGGGUGCCAA,2.47

# Block 3 — method: RNA Bind-n-Seq; molecule type: RNA; matrix: in vitro; concentration: 200 nM; setting: whole 134-nt RNA, ends assumed; together with: 150 mM KCl; reference: input library; direction: higher = stronger binding
# Target: Fragile X messenger ribonucleoprotein 1, C-terminal low-complexity region (Fmr1, Mus musculus, UniProt P35922)
Oligonucleotide,log2 enrichment
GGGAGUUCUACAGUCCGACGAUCAAGUCCUGUGCUACACAUCGUAUGUACCGAAUCGGUUUUGGGGUUUUGGGUUUUGGGAAAGUAUUAUGUUACGCCGUUCGGAUCUGCACUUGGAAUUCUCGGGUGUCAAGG,0.0631
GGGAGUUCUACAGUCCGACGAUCCAAGUCCUGUGCUACACAUCGUAUGUACCGAAUCGGGUUUUUGGGAAAGGGUGGGAAAGUAUUAUGUUACGCCGUUCGGAUCUGCACUUCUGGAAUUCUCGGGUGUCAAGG,1.04
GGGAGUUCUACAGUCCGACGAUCCUCAAGUCCUGUGCUACACAUCGUAUGUACCGAAUCGGGUUGGGUUGGUUGGGGAAAGUAUUAUGUUACGCCGUUCGGAUCUGCACUUCCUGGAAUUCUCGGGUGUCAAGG,1.16
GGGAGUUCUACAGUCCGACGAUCGCAGGAAGUAAAAACAAAUGGAAAUGCUUCGGAUAGUGGCAGGGGUGGGGGUUGCUAAGGAAAAGGUGGGAUGGGAGUGGGUAAAGAGUUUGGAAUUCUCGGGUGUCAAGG,0.377
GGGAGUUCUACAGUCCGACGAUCCCUGUGCUACACAUCGUAUGUACCGAAUCGGAAAAAAGGGGAAAAAAGGGGAAAAAAGGGGAAAGUAUUAUGUUACGCCGUUCGGAUCUGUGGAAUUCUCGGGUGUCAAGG,-0.649
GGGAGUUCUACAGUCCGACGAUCUGCAGUGAUGGUCAUUGUCCUCCAGAGCAGUGAUGGAGGAAAUACCAGCCCAGGAAGCAGCAGGGUCACCAAGGGUCCAGUUUCAGUCUUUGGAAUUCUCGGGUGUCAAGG,-0.481
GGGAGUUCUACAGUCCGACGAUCUUGUUCUGGCAUAAACAUAACAUUGAGAAGUCCCUUGCUGAUCUCCCUAAUUUCACUCCCUUUCCGGAUGAGUGGACAGUGGAAGAUAAAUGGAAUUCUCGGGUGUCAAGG,-0.19
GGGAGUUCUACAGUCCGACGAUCUGGGAGGUGGAUUUUGUUUAUUUUUUUAGCUCAUUUCCAGGGGUGGGAAUUUUUUUUUAAUAUGUGUCAUGAAUAAAGUUGUUUUUGACAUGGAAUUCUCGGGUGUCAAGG,0.534
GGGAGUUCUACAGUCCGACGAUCCUGUGCUACACAUCGUAUGUACCGAAUCGGGGCCCCCCCGGCCCCCCCGGCCCCCCCGGGGAAAGUAUUAUGUUACGCCGUUCGGAUCUGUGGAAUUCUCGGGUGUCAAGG,-0.916
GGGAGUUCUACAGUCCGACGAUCAAGUCCUGUGCUACACAUCGUAUGUACCGAAUCGGGUUUGGGAAAAAGGGAAAGGGAAAGUAUUAUGUUACGCCGUUCGGAUCUGCACUUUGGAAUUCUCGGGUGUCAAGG,0.632

# Block 4 — method: protein binding microarray; molecule type: double-stranded DNA, one strand shown; matrix: in vitro; concentration: not given; reference: not given; direction: higher = stronger binding
# Target: Histone acetyltransferase KAT6A, winged helix 2, GST fusion (KAT6A, Homo sapiens, UniProt Q92794, residues 85-181)
# Setting: 8-mer, flanks averaged, mean of 2 arrays, mostly near background
# Residues (chain): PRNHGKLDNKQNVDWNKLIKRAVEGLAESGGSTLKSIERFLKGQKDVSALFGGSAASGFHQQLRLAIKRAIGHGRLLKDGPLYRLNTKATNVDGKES
Oligonucleotide,E-score
CAGATTGA,-0.108
CTAAAGTA,-0.108
ATGAGCGC,-0.0505
ACCTCTAA,0.00908
CCATTTGA,-0.0657
CGATCCAC,-0.107
AACACGTG,-0.202
CGACCCAG,0.111
ACTATAAT,-0.217
ATCGACTA,-0.0668
GATGAAAA,0.0102
CCGCCGAG,0.249
AAGTTTGG,0.16
GAATACCC,0.0286
ATCCGCAC,-0.0452
CAAGACAA,0.126
ATTAAAAA,0.197
ACTCTAGG,-0.0512
CAGGCCCC,-0.0908
ATACTACG,-0.039
CGTAGCAC,-0.000115

# A few entries again (block 4):
Oligonucleotide,E-score
CAGATTGA,-0.108
CTAAAGTA,-0.108
ATGAGCGC,-0.0505
